# Measurements from different studies.
# Numbers after ± are the reported error.
# Target: Metallo-beta-lactamase VIM-2 (VIM-2, Escherichia coli, UniProt Q5U7L7)
# Action: inhibitor
Compound,effect on,method,pH,setting,IC50 [µM]
COCc1c(C(=O)O)nnn1Cc1c(F)cccc1Cl,enzyme activity,fluorescence,,with preincubation,38.1
Cn1nnc(-c2cccc(NC(=O)CS)c2)n1,enzyme activity,fluorescence,,with preincubation,1.38
O=C(O)CNCP(=O)(O)O,enzyme activity,fluorescence,,,41
O=C(CCS)Nc1cccc(-c2nn[nH]n2)c1,enzyme activity,fluorescence,,with preincubation,0.0214
N[C@@H](CN[C@@H](CN[C@@H](CC(=O)O)C(=O)O)C(=O)O)C(=O)O,enzyme activity,,,Zn2+-depleted enzyme,3000
O=C(O)CC(O)(CC(=O)O)C(=O)O,enzyme activity,fluorescence,,,102
CN(C)c1ccc2c(c1)C(=O)N(C(CS)C(N)=O)C2=O (stereo not drawn),enzyme activity,,pH 7,,1.7
O=C(O)c1nc[nH]c1C(=O)Nc1ccccc1,enzyme activity,fluorescence,,with preincubation,169
Cn1nnnc1-c1cccc(NC(=O)CCS)c1,enzyme activity,fluorescence,,with preincubation,0.48
CC(C)Cc1cc(C(=O)O)nc2[nH][nH]c(=O)c12,enzyme activity,fluorescence,,with preincubation,540
O=C(O)c1cccc(CP(=O)(O)O)n1,enzyme activity,absorbance,,with preincubation,1.29
O=C(O)CN(CCO)CCO,enzyme activity,fluorescence,,,> 200
NC(CNC(CNC(CC(=O)O)C(=O)O)C(=O)O)C(=O)O (stereo not drawn),,,,,9.6 ± 2.4
O=C(CCS)Nc1ccccc1-c1nn[nH]n1,enzyme activity,fluorescence,,with preincubation,0.0282
O=C(O)CNC(CO)(CO)CO,enzyme activity,fluorescence,,,> 200
